Measured values gathered from unrelated publications.
Lines come from different studies, so protocols differ. Numbers after ± are the reported error.
UniProt P07948, sequence (whole entry, looked up): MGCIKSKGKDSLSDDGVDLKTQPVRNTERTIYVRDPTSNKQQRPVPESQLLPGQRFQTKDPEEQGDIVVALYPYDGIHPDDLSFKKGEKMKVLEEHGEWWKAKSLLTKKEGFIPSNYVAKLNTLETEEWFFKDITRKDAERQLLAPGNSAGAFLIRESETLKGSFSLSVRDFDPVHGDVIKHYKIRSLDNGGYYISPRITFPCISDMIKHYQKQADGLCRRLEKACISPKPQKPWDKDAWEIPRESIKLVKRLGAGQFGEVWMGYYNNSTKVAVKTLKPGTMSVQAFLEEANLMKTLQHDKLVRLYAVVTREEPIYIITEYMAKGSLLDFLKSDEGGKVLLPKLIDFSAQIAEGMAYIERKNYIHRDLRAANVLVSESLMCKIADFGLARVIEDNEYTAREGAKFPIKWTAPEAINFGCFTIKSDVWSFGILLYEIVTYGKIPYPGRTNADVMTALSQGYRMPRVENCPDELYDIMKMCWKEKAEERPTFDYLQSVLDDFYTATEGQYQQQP
UniProt P14868, sequence (whole entry, looked up): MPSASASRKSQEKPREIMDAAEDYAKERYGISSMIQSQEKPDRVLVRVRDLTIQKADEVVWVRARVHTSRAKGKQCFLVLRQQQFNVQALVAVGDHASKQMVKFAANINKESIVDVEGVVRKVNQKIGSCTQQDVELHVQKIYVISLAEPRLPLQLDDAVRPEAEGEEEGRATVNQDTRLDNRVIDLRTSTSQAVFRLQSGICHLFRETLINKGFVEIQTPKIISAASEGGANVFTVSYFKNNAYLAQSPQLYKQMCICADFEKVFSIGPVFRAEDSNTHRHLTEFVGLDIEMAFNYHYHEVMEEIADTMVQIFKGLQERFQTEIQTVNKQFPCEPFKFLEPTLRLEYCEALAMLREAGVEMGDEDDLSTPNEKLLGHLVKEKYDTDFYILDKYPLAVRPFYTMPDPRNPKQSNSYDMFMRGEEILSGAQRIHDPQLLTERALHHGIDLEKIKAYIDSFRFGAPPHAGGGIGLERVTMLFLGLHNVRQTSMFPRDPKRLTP
UniProt P29350, sequence (whole entry, looked up): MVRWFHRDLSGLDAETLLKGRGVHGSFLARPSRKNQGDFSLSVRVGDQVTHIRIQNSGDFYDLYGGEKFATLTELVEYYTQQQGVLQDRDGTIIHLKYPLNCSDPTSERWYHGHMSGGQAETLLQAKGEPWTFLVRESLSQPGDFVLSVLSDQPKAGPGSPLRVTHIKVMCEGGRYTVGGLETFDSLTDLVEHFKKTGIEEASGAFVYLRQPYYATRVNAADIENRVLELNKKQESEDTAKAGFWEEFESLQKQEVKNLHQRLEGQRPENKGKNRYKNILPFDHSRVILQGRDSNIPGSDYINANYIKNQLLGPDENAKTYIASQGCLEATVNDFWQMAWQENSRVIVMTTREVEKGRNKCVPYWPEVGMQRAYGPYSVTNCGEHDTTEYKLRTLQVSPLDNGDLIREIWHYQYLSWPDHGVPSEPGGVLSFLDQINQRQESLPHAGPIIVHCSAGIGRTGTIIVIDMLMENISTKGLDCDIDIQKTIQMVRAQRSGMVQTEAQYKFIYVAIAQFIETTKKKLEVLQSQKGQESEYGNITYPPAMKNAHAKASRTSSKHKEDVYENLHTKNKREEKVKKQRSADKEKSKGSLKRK
UniProt P51878, sequence (whole entry, looked up): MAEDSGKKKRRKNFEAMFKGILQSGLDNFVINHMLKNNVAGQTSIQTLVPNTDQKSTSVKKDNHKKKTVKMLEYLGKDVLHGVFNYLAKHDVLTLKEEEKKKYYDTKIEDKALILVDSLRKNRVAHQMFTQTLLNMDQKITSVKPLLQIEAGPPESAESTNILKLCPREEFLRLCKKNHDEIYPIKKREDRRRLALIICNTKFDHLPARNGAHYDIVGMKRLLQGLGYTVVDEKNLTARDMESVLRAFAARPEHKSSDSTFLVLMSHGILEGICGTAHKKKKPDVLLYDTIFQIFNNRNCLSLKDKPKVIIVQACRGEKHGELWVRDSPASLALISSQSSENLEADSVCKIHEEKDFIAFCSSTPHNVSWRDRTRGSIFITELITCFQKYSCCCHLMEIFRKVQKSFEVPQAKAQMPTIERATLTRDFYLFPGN

CC(C)C[C@H](NC(=O)[C@@H](NC(=O)[C@H](CO)NC(=O)[C@H](CO)NC(=O)[C@@H](NC(=O)[C@H](CC(=O)O)NC(=O)[C@H](CC(C)C)NC(=O)[C@@H]1CCCN1C(=O)[C@H](CO)NC(=O)c1ccc2c(c1)C(=O)OC21c2ccc(N(C)C)cc2Oc2cc(N(C)C)ccc21)[C@@H](C)O)C(C)C)C(=O)N[C@@H](Cc1ccc(OP(=O)(O)O)cc1)C(=O)N[C@H](C(=O)N[C@@H](C)C(=O)N[C@H](C(=O)N[C@@H](CCC(N)=O)C(=O)N1CCC[C@H]1C(=O)N[C@@H](CC(N)=O)C(=O)N[C@@H](CCC(=O)O)C(=O)N[C@@H](CC(=O)O)C(=O)O)C(C)C)[C@@H](C)O
Kd (Tyrosine-protein kinase Lyn, SH2 domain (LYN, Homo sapiens, UniProt P07948); binding): 185 nM

N[C@@H]1C[C@H]1c1ccccc1
Ki (tyramine oxidase Arthrobacter sp.; inhibitor): 17000 ± 3000 nM

C=CC[N+](C)(C)c1ccc(CCC(=O)CCc2ccc([N+](C)(C)CC=C)cc2)cc1
IC50 (Acetylcholinesterase (Rhipicephalus microplus, UniProt O45210, W384F)): 1570 nM

NCC(CS(=O)(=O)O)c1ccc(Cl)cc1 (centres unmarked)
Kd (de novo protein S23; NMR): ~40000 nM

COc1cc(Nc2ncc(F)c(Nc3ccc4c(n3)NC(=O)C(C)(C)O4)n2)cc(OC)c1OC
IC50 (Caspase-5 (CASP5, Homo sapiens, UniProt P51878)): > 10000 nM

C[C@H]1CN(c2n[nH]c3nc(N[C@H]4CC[C@H](NS(=O)(=O)CCC(F)(F)F)CC4)ncc23)CCO1
IC50 (DARS1 (Homo sapiens, UniProt P14868); biochemical): ≥ 20000 nM

CC[C@H](C)[C@H](NC(=O)[C@H](CO)NC(=O)[C@H](C)NC(=O)[C@H](Cc1ccc(OP(=O)(O)O)cc1)NC(=O)[C@H](CCC(=O)O)NC(=O)[C@@H](NC(=O)[C@H](Cc1c[nH]cn1)NC(=O)[C@H](CC(N)=O)NC(=O)[C@H](CC(N)=O)NC(=O)[C@@H]1CCCN1C(=O)[C@H](CCC(=O)O)NC(=O)[C@H](C)NC(=O)[C@H](C)NC(=O)[C@H](CCC(N)=O)NC(=O)[C@@H]1CCCN1C(=O)[C@H](C)NC(=O)[C@@H]1CCCN1C(=O)[C@H](CCCCN)NC(=O)[C@H](CCCCN)NC(=O)CNC(=O)[C@H](CCCCN)NC(=O)[C@@H]1CCCN1C(=O)[C@H](CC(C)C)NC(=O)[C@H](CC(N)=O)NC(=O)[C@H](CC(C)C)NC(=O)[C@H](CC(=O)O)NC(=O)[C@H](C)NC(=O)[C@H](Cc1ccc(OP(=O)(O)O)cc1)NC(=O)[C@@H](NC(=O)[C@@H](NC(=O)[C@@H](N)CC(=O)O)[C@@H](C)CC)[C@@H](C)O)[C@@H](C)O)C(=O)N[C@@H](CCC(N)=O)C(=O)N[C@H](C(=O)N[C@@H](CO)C(=O)O)[C@@H](C)O
EC50 (PTPN11 (Homo sapiens, UniProt Q06124, R111K); enzyme activity, activator; pH 7.0, 0.2% DMSO, added: DiFMUP 100 µM, phosphopeptide): 116 ± 3 nM

CSCC[C@H](NC(=O)CNC(=O)[C@H](Cc1ccccc1)NC(=O)[C@H](CC(=O)O)NC(=O)CNC(=O)c1ccc2c(c1)C(=O)OC21c2ccc(N(C)C)cc2Oc2cc(N(C)C)ccc21)C(=O)N[C@@H](CO)C(=O)N[C@@H](CCCNC(=N)N)C(=O)N[C@@H](CC(=O)O)C(=O)N[C@H](C(=O)N[C@@H](Cc1ccc(OP(=O)(O)O)cc1)C(=O)N[C@@H](CO)C(=O)N[C@H](C(=O)N[C@@H](CC(=O)O)C(=O)N[C@@H](Cc1ccc(O)cc1)C(=O)N[C@@H](Cc1ccc(O)cc1)C(=O)N[C@@H](CCCNC(=N)N)C(=O)N[C@H](C(=O)N[C@@H](CC(=O)O)C(=O)O)C(C)C)[C@@H](C)O)C(C)C
Kd (Tyrosine-protein phosphatase non-receptor type 6, SH2 domains (PTPN6, Homo sapiens, UniProt P29350); binding): 967 nM

Some of these lines once more:
NCC(CS(=O)(=O)O)c1ccc(Cl)cc1 (centres unmarked)
Kd (de novo protein S23; NMR): ~40000 nM
